Published values of several laboratories.
Each numbered part is a random draw from the data of one study; scales do not carry over between parts. Changes are numbered by the printed parent chain.

Set 1
Target: RNA binding protein fox-1 homolog 2, RRM domain, GST-SBP tag (RBFOX2, Homo sapiens, UniProt O43251-10, residues 100-194)
Technique: RNA Bind-n-Seq
Form: RNA
Matrix: in vitro
Concentration: 365 nM
Notes: natural RNA segment, single round, ends assumed
Relative to: no-protein control
Reading: higher = stronger binding
Constant ends, left off below: GGGAGUUCUACAGUCCGACGAUC … UGGAAUUCUCGGGUGCCAA
Construct (chain): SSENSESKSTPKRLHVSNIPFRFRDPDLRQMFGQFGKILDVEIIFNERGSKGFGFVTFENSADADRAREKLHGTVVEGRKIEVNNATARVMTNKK
Oligonucleotide | RBNS enrichment (R)
AUGGCACUGGACUGCCUCUAAGGACUGCUAAAAAGAAUAUUUUUUUGUGGUGUCAGAACUGGAAAAAGCACUUUCCCUUCGGGCAUUUCUGGAAAUGAUUAUUAAUCCAC | 0.47
AUGCAGUCCUCCCCUCCCUGGUCUCCUGCUUCAGCUCUGUACAACGAGGGCAAAGAUGCUAAAUCUUGCUUUGCAUUCAGUAAAGUGUCAAGUGAUUAAGUGUGUAUUUG | 0.232
CUCUGUGUAGUCAUUCCUAAGCCCCACAGAGGGAGCGCCAACAUUUCUCACUGUGCUGCUGAGGUUCUGACCUGGUGUGUCUGACAUUGCAUCAGGCUUUGCAGAACAAA | 0.791
UUGAGACCCCAGAGGACCAGAACGAUCUACGGAAAAUGCAGCUUCGAGAGUUGGCUCGCUUGAAUGGCACUCUACGGGAAGAUGAUAAUAGGAUCUUAAGGCCCUGGCAG | 0.897
UGUUCAUCUGUGGGUCAUCGAGGCUGGAGCAGUUCCUGCUGAGUCAGGCUCUGUCCUAGAGUGGGCAGUCCUGAUGCAGGGCUCAGCAGGAGCCUAGUGCAGGGUGAACA | 0.48
GCUGUUUGAAUUUUUCUUUUCCUGUGCCAGAUAUAGAAUGCAGUCAACCCUUUUUCAGUAACUUAUGUUCACCAGUCUGUGCUUUUCUUCUCCCAGAAGGCUUUUCUUAG | 1.36
GAGUCAGUAGACUAUUUAGAGACUCAUGUAACUUGGGGUAUGGGCAUGCCUUUAUGGGAGCAGCCACUCUCUGACUAAGUGGCCACUGCUCUCACUUAGACUUUGCUGUC | 0.465
CCACCUUUGUCAUCAGCUUUUCCUCUUUGCCACUGGAUCUUCAUGGAGACAUGGGCAAGCAUUAGUGGCUUCAGAUUGGAGACCAGCCUGGGACUUCCCUGCAGUGAGAG | 0.65
AGCCCUGCUCCUUGCCUUUUGCAUUGUCAUUCCUCCCCUCUGUCCAGGUCAUUCCUUGGCUAAGCCUUCGAGCUCCCUUAUACCCAUGCUAUCUGGUUUGACAAUUCCAU | 0.441
CGUGGAGGUGUGUGUGUCCAUGGCAUCCGGAGCGAGGCGACUGUCCUGCGUGGGUAGCCCUCGGCCGGGGAGUGAGGCCACCAACCAAAGUCAGUUCCUUCCCACCUGUG | 0.434
GGAGGUAGCAGGCACUGGCAUAGCACGGUAGUGGUUUGGGGAGGUUUCCGCAGGUCUGCUCCCCACCCCUGCCUCGGAAGAAUAAAGAGAAUGUAGUUCCCUACUCAGGC | 0.336
GUAUUAUUUUCUCUGAAUCCUCUUCACUGGCCAAAGGUUGGCAGAUAGAGGCAACUCCCAGGCCAGUGAGCUUUACUUGCCGUGUAAAAGGAGGAAAGGGGUGGAAAAAA | 0.449

Set 2
Target: CCND3, cyclin fold, Cln2 fusion (human)
Technique: yeast growth competition, sequencing
Matrix: yeast
Notes: weak parent motif
Relative to: not given
Reading: higher = stronger binding
Starting sequence: SLBP docking peptide (human); ARYKRKLLINDFG; partner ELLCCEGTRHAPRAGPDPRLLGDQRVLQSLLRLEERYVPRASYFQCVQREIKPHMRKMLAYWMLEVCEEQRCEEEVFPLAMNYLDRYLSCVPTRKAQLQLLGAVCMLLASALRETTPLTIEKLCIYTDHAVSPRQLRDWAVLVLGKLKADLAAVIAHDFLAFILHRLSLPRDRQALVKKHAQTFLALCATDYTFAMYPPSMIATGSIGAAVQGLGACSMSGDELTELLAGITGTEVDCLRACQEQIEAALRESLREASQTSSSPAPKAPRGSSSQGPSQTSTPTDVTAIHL
Change | normalised enrichment score
ARYKKKLFINDFG [R5K L8F] | 0.183
ARYKRKLLINDFQ [G13Q] | 0.155
ARWKRKLLINDFG [Y3W] | 0.0813
VRYKRKLLINDFG [A1V] | 0.2
ARYKRKALINDFG [L7A] | 0.0768
ARYKRDLLINDFG [K6D] | 0.123
ARFKRKLLINDFG [Y3F] | 0.186
ARYKRKLLICDFG [N10C] | 0.126
ARYKRKHLINDFG [L7H] | 0.214
ARYKRKSLINDFG [L7S] | 0.0859
ARYKRKLLINDAG [F12A] | 0.0953
AFYKRKLLINDFG [R2F] | 0.279
ARYKRKLLISDFG [N10S] | 0.176
ARPKRKLLINDFG [Y3P] | 0.111
ARYKRKLLINDFW [G13W] | 0.0275
ARYKRKTLINDFG [L7T] | 0.106
WRYKRKLLINDFG [A1W] | 0.141
ARYKRKGLINDFG [L7G] | 0.1
ARYFRKLLINDFG [K4F] | 0.149
ARYIRKLLINDFG [K4I] | 0.0809
ARYKRKLLINDFT [G13T] | 0.101
PRYKRKLLINDFG [A1P] | 0.0711
ARYKRVLLINDFG [K6V] | 0.19
ARYKRKLLFNDFG [I9F] | 0.0674
ARYKRKLLINDSG [F12S] | 0.0726

Set 3
Target: ABI1, truncated, D143A, DHFR fusion (Arabidopsis thaliana)
Technique: DHFR PCA, deep sequencing
Matrix: yeast
Notes: methotrexate growth selection, single substitutions
With: (+)-ABA 200 µM
Relative to: wild-type fitted maximum
Reading: higher = stronger binding
Starting sequence: PYL1, truncated, DHFR fusion (Arabidopsis thaliana); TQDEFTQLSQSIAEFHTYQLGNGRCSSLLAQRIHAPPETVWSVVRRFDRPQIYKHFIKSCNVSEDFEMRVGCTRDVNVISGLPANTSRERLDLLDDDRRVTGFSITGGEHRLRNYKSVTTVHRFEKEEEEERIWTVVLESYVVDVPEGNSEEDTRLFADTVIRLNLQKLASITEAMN; partner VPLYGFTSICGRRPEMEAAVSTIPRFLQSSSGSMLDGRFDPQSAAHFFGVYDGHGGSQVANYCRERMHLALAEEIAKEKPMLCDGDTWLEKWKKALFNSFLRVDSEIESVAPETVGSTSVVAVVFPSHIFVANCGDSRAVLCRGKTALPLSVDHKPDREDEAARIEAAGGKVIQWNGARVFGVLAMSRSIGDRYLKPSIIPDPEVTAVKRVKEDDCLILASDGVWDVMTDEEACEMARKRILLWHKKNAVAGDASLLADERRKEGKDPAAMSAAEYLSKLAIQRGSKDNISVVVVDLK
Change | relative binding score
V118Q | 70.9%
D92Y | 50.6%
V121T | 53.6%
V100W | 16.9%
E131Y | 101%
Y141P | 7.99%
Q31S | 55.9%
T39M | 100%
V118M | 102%
R111G | 43.5%
R155G | 49.4%
A158K | -8.56%
R74I | 7.1%
H55F | 90.2%
F124M | 110%
I79S | 98.8%
N165A | 11.5%
T86F | 95.5%
E109K | 107%
V145R | 64.7%

Set 4
Target: UBE2L3 UBC core domain (UniProt P68036)
Chain of UniProt P68036 (whole entry, looked up): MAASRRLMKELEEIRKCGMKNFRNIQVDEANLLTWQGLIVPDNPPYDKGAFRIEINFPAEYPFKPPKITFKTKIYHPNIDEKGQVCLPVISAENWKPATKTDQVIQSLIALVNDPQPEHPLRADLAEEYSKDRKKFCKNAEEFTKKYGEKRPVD
Technique: yeast two-hybrid
Matrix: yeast
Notes: mostly zero background
Relative to: not given
Reading: higher = stronger interaction
B1: TRIM69 RING domain (UniProt Q86WT6); chain VIQDITMELHCPLCNDWFRDPLMLSCGHNFCEACIQDFWRLQAKETFCPECKMLCQYNNCTF
B2: TRIM8 RING domain (UniProt Q9BZR9); chain WKNCFEEELICPICLHVFVEPVQLPCKHNFCRGCIGEAWAKDSGLVRCPECNQAYNQKPGLE
B3: RNF170 RING domain (UniProt Q96K19); chain TRQQFYTDMYCPICLHQASFPVETNCGHLFCGACIIAYWRYGSWLGAISCPICRQTVTLLLTVF
B4: PHF21A RING domain (UniProt Q96BD5); chain SPTSTDGDIHEDFCSVCRKSGQLLMCDTCSRVYHLDCLDPPLKTIPKGMWICPRCQDQMLKKEEAIPW
Molecule | lacZ reporter activity
B1 (TRIM69 RING domain) | 0
PEELQAMDNVCIICREEMVTGAKRLPCNHIFHTSCLRSWFQRQQTCPTCRMDVLRASLPA (SYVN1 RING domain (UniProt Q86TM6)) | 0
B2 (TRIM8 RING domain) | 0
DAIPSLSECQCGICMEILVEPVTLPCNHTLCKPCFQSTVEKASLCCPFCRRRVSSWTRYH (RNF168 RING domain (UniProt Q8IYW5)) | 0
B3 (RNF170 RING domain) | 0
B4 (PHF21A RING domain) | 0
VTLSLTLPITCHICLGKVRQPVICINNHVFCSICIDLWLKNNSQCPACRVPITPENPCK (OBI1 RING domain (UniProt Q5W0B1)) | 0
QLQDIKEQTMCPVCLDRLKNMIFLCGHGTCQLCGDRMSECPICRKAIERRILLY (MIB1 RING domain (UniProt Q86YT6)) | 0
EDEVSDNSAECVVCLSDVRDTLILPCRHLCLCNTCADTLRYQANNCPICRLPFRALLQIR (RNF157 RING domain (UniProt Q96PX1)) | 0
FPEHFVKSISCQICEHILADPVETNCKHVFCRVCILRCLKVMGSYCPSCRYPCFPTDLES (RAG1 RING domain (UniProt P15918)) | 0
FASPPDSNFVCSVCHGVLKRPARLPCSHIFCKKCILRWLARQKTCPCCRKEVKRKKVVH (RNF151 RING domain (UniProt Q2KHN1)) | 0

Set 5
Target: Fragile X messenger ribonucleoprotein 1, C-terminal low-complexity region (Fmr1, Mus musculus, UniProt P35922)
Technique: RNA Bind-n-Seq
Form: RNA
Matrix: in vitro
Concentration: 200 nM
Notes: whole 134-nt RNA, ends assumed
With: 150 mM KCl
Relative to: input library
Reading: higher = stronger binding
Constant ends, left off below: GGGAGUUCUACAGUCCGACGAUC … UGGAAUUCUCGGGUGUCAAGG
Oligonucleotide | log2 enrichment
UCGGACGCCGCCAACCUGCACGAGUUCCACGCGGACCUGCGCUCAUGCUUUGCACCCCAGCACAUGGCCAUGCUGUGUAGCCCCAUCCUC | 0.424
AGUCCUGUGCUACACAUCGUAUGUACCGAAUCGGGUUUGGGAAAAAAAGGGUUUGGGAAAGUAUUAUGUUACGCCGUUCGGAUCUGCACU | 0.467
UCAAGUCCUGUGCUACACAUCGUAUGUACCGAAUCGGUUGGGUUGGGGUUGGGGAAAGUAUUAUGUUACGCCGUUCGGAUCUGCACUUCC | 0.932
UCCUGUGCUACACAUCGUAUGUACCGAAUCGGAAAAAAGGGGAAAAAAGGGAAAAAAGGAAAGUAUUAUGUUACGCCGUUCGGAUCUGCA | -0.451
UGGGAGGUGUAUUUUGUUUAUUUUUUUAGCUCAUUUCCAGGGGUGGGAAUUUUUUUUUAAUAUGUGUCAUGAAUAAAGUUGUUUUUGAAA | 0.377
CACAGACAACACGCACCCAGACAGACACAGAGGGAAGGGGUUGGGAUGGGGACAGGGUGCACAGCAGGGCGGGGUAGGACCCCAGCCCCU | 1.35
CCUCAAGUCCUGUGCUACACAUCGUAUGUACCGAAUCGGUUUUUGGUGGUGGAAAGUAUUAUGUUACGCCGUUCGGAUCUGCACUUCCAG | 0.255
CCUCAAGUCCUGUGCUACACAUCGUAUGUACCGAAUCGGGGCGGGGCGGCGGGAAAGUAUUAUGUUACGCCGUUCGGAUCUGCACUUCCA | 0.762
CAAGUCCUGUGCUACACAUCGUAUGUACCGAAUCGGUUUUUUUGGAAAGGUUUGGAAAGUAUUAUGUUACGCCGUUCGGAUCUGCACUUC | -1.03
GUCCUGUGCUACACAUCGUAUGUACCGAAUCGGGGAAAAAGGGGAAAAAGGGAAAAAGGAAAGUAUUAUGUUACGCCGUUCGGAUCUGCA | -0.111
UCAAGUCCUGUGCUACACAUCGUAUGUACCGAAUCGUGUGUGUGUGUGUGUGUGUAAAGUAUUAUGUUACGCCGUUCGGAUCUGCACUUC | 0.254
UCCUCAAGUCCUGUGCUACACAUCGUAUGUACCGAAUCGGAGGAAAGGUGGAAAGUAUUAUGUUACGCCGUUCGGAUCUGCACUUCCAGC | -0.592
UGGCCCUGGUGGCAUGCGGGGAGGAAGAGGUGGCCGCAUGGAUCGUGGUGGUCCCGGUGGAAUGUUCAGAGGUGGCCGUGGUGGAGACAG | 0.284
UCAAGUCCUGUGCUACACAUCGUAUGUACCGAAUCGGUUUUUUUGGUGGUUUGGAAAGUAUUAUGUUACGCCGUUCGGAUCUGCACUUCC | -0.716

For quick reference, copied from above (set 3):
Change | relative binding score
V118Q | 70.9%
D92Y | 50.6%
V121T | 53.6%
V100W | 16.9%
